Experimental data from different studies.
Parts stem from different laboratories: compare values within a part only.
UniProt O75460, sequence (whole entry, looked up): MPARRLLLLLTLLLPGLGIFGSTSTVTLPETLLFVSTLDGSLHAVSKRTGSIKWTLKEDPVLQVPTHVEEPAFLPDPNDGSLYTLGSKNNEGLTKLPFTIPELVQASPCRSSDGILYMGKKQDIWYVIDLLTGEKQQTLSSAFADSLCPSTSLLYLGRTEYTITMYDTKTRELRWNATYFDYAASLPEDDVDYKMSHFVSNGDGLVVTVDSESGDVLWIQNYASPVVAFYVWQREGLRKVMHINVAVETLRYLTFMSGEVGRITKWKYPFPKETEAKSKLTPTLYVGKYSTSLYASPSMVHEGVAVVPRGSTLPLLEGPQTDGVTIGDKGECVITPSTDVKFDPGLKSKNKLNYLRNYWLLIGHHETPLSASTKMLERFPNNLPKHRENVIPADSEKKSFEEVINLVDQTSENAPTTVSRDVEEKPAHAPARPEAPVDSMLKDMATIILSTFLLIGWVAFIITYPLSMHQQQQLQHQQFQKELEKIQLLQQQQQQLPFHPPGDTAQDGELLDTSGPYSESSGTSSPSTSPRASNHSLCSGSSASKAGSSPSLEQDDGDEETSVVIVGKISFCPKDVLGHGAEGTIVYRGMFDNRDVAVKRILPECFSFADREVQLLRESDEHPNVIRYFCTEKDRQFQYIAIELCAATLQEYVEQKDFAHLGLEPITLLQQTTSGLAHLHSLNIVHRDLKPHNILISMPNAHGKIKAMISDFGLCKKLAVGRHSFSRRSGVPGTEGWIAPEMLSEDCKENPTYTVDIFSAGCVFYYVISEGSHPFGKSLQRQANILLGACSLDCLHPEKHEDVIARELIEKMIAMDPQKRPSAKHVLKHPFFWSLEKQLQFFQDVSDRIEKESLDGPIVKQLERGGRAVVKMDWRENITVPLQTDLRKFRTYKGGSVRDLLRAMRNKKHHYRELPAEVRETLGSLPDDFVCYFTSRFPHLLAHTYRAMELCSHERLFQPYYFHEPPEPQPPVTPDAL
UniProt Q99759, sequence (whole entry, looked up): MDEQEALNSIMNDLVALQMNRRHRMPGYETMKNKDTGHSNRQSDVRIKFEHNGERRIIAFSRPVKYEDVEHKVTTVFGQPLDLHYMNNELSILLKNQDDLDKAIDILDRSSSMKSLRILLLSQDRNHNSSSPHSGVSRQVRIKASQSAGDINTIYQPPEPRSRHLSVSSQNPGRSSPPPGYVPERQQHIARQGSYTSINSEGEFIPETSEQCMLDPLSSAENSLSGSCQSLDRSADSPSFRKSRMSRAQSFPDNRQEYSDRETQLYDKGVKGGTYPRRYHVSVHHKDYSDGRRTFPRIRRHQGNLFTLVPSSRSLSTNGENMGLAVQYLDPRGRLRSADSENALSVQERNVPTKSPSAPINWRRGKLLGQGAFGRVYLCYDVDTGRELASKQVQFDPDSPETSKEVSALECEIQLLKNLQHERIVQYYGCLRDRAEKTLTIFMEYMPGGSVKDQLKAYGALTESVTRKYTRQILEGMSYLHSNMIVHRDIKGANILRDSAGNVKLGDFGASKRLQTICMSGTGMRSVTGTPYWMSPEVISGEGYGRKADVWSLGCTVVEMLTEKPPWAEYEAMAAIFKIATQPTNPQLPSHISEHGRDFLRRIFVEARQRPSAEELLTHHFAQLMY
UniProt Q9H0K1, sequence (whole entry, looked up): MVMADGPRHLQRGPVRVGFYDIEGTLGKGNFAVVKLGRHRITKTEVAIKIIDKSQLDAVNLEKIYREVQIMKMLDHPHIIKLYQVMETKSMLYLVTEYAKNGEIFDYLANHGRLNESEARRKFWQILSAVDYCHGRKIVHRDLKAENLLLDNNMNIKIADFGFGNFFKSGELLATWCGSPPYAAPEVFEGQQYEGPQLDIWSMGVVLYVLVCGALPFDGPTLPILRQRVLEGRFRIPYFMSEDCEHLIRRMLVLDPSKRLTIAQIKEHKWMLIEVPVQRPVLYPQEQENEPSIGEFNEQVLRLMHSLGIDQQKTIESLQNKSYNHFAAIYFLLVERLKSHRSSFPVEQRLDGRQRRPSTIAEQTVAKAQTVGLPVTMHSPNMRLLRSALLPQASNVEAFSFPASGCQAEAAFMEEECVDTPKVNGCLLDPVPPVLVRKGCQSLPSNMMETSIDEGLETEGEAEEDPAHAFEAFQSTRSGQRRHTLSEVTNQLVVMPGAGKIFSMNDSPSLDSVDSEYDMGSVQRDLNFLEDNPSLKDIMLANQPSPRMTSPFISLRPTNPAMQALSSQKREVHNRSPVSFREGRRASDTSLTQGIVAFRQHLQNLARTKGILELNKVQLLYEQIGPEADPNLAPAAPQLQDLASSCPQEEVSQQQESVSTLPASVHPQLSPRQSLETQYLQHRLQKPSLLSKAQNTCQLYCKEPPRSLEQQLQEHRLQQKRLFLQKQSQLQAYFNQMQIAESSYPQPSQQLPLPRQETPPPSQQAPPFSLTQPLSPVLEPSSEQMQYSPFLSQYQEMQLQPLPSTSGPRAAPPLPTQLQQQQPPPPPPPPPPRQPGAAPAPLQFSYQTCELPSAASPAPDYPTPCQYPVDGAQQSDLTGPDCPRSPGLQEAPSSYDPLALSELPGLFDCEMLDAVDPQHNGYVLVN
UniProt P51956, sequence (whole entry, looked up): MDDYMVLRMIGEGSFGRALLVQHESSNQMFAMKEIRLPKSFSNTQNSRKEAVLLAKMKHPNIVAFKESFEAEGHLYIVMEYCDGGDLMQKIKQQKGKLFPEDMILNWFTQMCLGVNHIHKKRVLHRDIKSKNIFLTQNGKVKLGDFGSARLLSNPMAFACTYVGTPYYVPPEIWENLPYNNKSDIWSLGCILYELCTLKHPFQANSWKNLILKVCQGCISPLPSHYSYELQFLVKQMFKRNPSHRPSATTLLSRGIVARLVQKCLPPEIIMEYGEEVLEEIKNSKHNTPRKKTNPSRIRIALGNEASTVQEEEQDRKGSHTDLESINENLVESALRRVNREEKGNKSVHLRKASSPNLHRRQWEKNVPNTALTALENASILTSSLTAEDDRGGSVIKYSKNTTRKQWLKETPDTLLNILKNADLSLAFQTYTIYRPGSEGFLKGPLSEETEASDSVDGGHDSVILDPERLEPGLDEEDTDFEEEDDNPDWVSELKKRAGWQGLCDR
UniProt Q13233, sequence (whole entry, looked up): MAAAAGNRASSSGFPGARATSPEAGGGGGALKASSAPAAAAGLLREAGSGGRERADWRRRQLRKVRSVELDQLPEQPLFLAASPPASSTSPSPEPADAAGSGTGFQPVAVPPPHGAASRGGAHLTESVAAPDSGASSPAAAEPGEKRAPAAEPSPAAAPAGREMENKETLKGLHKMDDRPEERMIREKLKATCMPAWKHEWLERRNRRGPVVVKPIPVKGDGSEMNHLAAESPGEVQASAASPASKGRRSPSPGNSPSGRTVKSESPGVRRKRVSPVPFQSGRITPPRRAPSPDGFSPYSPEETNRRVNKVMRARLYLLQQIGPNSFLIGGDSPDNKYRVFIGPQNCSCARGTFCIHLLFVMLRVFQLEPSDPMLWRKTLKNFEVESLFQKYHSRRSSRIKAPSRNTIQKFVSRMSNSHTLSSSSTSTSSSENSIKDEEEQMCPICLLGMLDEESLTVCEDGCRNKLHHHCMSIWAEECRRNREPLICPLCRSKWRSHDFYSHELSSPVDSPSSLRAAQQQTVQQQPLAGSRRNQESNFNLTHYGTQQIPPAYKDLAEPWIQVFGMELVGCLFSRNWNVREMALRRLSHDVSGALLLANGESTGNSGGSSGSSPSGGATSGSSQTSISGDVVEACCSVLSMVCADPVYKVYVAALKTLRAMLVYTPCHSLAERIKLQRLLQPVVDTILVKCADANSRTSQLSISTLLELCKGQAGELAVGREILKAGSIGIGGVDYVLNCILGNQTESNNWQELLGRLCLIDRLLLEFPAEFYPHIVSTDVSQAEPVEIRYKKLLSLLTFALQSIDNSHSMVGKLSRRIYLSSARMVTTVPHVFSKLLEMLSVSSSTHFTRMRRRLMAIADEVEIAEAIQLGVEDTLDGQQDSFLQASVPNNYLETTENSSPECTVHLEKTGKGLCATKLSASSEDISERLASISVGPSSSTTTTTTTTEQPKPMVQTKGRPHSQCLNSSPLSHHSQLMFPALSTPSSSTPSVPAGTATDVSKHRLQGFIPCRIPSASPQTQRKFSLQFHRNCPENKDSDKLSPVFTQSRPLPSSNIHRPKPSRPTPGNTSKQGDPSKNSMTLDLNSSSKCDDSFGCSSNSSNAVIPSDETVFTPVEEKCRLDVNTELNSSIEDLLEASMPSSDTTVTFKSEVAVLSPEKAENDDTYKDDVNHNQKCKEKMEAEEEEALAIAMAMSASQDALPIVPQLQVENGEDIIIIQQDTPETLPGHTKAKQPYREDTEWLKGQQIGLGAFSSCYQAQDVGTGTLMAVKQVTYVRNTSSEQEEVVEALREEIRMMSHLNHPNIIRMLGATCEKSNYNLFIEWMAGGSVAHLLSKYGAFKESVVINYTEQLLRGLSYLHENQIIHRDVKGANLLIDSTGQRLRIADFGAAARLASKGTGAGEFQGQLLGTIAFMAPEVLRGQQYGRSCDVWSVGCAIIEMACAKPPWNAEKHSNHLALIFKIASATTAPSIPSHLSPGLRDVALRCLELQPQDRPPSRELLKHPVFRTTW
UniProt P19784, sequence (whole entry, looked up): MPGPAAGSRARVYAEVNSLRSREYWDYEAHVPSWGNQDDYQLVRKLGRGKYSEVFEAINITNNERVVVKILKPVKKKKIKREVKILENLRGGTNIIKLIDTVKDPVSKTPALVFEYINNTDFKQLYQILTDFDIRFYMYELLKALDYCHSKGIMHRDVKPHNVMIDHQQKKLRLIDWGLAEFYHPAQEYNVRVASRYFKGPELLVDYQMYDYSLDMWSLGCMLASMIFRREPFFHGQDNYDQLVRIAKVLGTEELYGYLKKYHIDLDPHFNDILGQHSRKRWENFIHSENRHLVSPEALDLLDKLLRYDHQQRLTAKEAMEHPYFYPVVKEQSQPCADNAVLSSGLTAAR

Sample 1 — host: human; medium: microsomes or S9; concentration: 2 µM; time: 0.5 h; quantity: remaining compound
CC(C)n1c(C(O)c2nc3ccccc3n2C)nc2ccccc21 (centres unmarked): 63.9%
CCCC(=O)Nn1c(=S)[nH]c2cc(C)[nH]c2c1=O: 97.6%
CCOc1cc(CNCCO)cc(Br)c1OC(C)C: 0%
CCC(=O)N(CCO)Cc1cc2cc(C)cc(C)c2[nH]c1=O: > 100%
CCc1ccc(-c2nc3sc(N4CCN(C(=O)c5ccnn5C)CC4)nn3c2NC(C)(C)C)cc1: 35.3%
CNS(=O)(=O)c1ccc2c(c1)CCN2C(C)=O: > 99%

Sample 2 — effect on: cell-free assay; technique: competition with immobilised ligand; concentration: 1 µM; quantity: remaining binding
SMILES: Cn1nc(C(F)(F)F)cc1-c1cnc(N2CCc3cc(S(=O)(=O)Nc4c(F)cc(Cl)cc4F)cc(N4CCCC4=O)c32)nc1
Receptor-type tyrosine-protein kinase FLT3, autoinhibited (FLT3, Homo sapiens, UniProt P36888): 100%
FLT3 (Homo sapiens, UniProt P36888, D835V/ITD): 82%
CSNK2A2 (Homo sapiens, UniProt P19784): 84%
AKT2 (Homo sapiens, UniProt P31751): 100%
EPHA7 (Homo sapiens, UniProt Q15375): 78%
ERN1 (Homo sapiens, UniProt O75460): 92%
MAP3K3 (Homo sapiens, UniProt Q99759): 89%
NEK3 (Homo sapiens, UniProt P51956): 90%
PIK3CA (Homo sapiens, UniProt P42336, Q546K): 82%
CHUK (Homo sapiens, UniProt O15111): 99%
MAP3K1 (Homo sapiens, UniProt Q13233): 70%
SIK2 (Homo sapiens, UniProt Q9H0K1): 100%
MAPK11 (Homo sapiens, UniProt Q15759): 100%
HCK (Homo sapiens, UniProt P08631): 95%
PRKD3 (Homo sapiens, UniProt O94806): 100%

Sample 3 — cell line: A-375; concentration: 100 µM; time: 18 h; quantity: viability
O=C(NC[C@H]1CN(c2ccc(N3CCOCC3=O)cc2)C(=O)O1)c1ccc(Cl)s1: 91.8%
c1ccc(CN(CC2=NCCN2)c2ccccc2)cc1: 86.3%
Clc1ccc(C(c2ccccc2Cl)C(Cl)Cl)cc1 (centres unmarked): 8.3%
CCN(CC)C(=O)/C(C#N)=C/c1cc(O)c(O)c([N+](=O)[O-])c1: 85.8%
CC(C)=CCC/C(C)=C/CC/C(C)=C/CC/C(C)=C/CC1=C(C)C(=O)c2ccccc2C1=O: 59.4%

Sample 4 — organism: Sarcocystis neurona; effect on: parasite activity; concentration: 10 µM; time: 96 h; quantity: activity class
N[C@@H](Cc1cc(I)c(Oc2cc(I)c(O)c(I)c2)c(I)c1)C(=O)O: inactive
COc1ccc2c(c1)c(CC(=O)O)c(C)n2C(=O)c1ccc(Cl)cc1: inactive
Nc1ccc(O)c(C(=O)O)c1: inactive
CCCc1nc2c(C)cc(-c3nc4ccccc4n3C)cc2n1Cc1ccc(-c2ccccc2C(=O)O)cc1: inactive
Cc1c(O)cccc1C(=O)N[C@@H](CSc1ccccc1)[C@H](O)CN1C[C@H]2CCCC[C@H]2C[C@H]1C(=O)NC(C)(C)C: inactive
CN(C)CCCN1c2ccccc2CCc2ccc(Cl)cc21: inactive

For quick reference, copied from above (sample 3):
O=C(NC[C@H]1CN(c2ccc(N3CCOCC3=O)cc2)C(=O)O1)c1ccc(Cl)s1: 91.8%
CCN(CC)C(=O)/C(C#N)=C/c1cc(O)c(O)c([N+](=O)[O-])c1: 85.8%
Clc1ccc(C(c2ccccc2Cl)C(Cl)Cl)cc1 (centres unmarked): 8.3%
CC(C)=CCC/C(C)=C/CC/C(C)=C/CC/C(C)=C/CC1=C(C)C(=O)c2ccccc2C1=O: 59.4%
